Experimental data pooled from the literature.
A part holds a random share of what one study measured.

Series 1
Target: RING finger protein unkempt homolog, zinc fingers 1-6, GST-SBP tag (UNK, Homo sapiens, UniProt Q9C0B0, residues 30-357)
Sequence of UniProt Q9C0B0 (30-357, looked up): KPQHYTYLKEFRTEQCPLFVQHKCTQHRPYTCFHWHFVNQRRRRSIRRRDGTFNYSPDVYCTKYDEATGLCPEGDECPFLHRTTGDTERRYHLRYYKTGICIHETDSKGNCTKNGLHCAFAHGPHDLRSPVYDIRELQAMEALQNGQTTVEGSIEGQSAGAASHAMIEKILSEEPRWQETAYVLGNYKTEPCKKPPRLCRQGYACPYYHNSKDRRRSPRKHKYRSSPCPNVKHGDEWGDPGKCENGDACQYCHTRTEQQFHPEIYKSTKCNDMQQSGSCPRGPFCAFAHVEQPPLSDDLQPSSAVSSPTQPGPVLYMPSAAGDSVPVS
Method: RNA Bind-n-Seq
Form: RNA
Sample: in vitro
Concentration: not given
Notes: RNA with constant flanks, human-mouse chimeric sites, ends assumed
Relative to: input RNA pool
Direction: higher = stronger binding
Constant ends, left off below: GGGAGUUCUACAGUCCGACGAUC … CAACAGAGGAUUGAGCAUCA
| Oligonucleotide | bound/input enrichment |
| --- | --- |
| UACUACUAUGAUGGUGAUAUUGGCAAUUAUUAUUAUGGCCAGGGUCAUCCCAUGAAGCCUCAUAGAAUCCGGAUGACCCAUAACUUGCUGUUAAAUUAUGGUUUAUACCGAAAAAUGGAA | 0.156 ratio |
| AAUUUCCGCAACUGUUUUUUAGACAUUCACAUCAGACUUACAGAGCACCUGGCCACAUUCUAGUUUUGUGUUAUUUCUCAGCUAUGGAUAUGAUCAAAUGAGAACACUGCUUAACUAAUG | 0.604 ratio |
| CCACCAGAUUCCAGCCAACAUGACCCUUGCUGCCUACAAAGAGAAGAUGAAGGAGCUCCCGCUGGUGUCCUUGUUCUGCUCCUGCUUCCUGGCCGAUCCCCUGAAUAAGUCGUCCUACAA | 0.323 ratio |
| UCUGGUCACACUCGUGUGUAUGGUGUUUGCUUUGUGGACACUUCACUGGGCAAGUUUUUCAUCGGCCAGUUUUCAGAUGACCGCCACUGUUCCAGAUUUAGGACGCUAGUGGCUCACUAU | 0.209 ratio |
| GAAACAUUUAAAUUUAAAGAAGCUGUUGUUCUAGGAAGUACGGACUUUCUAGAAGAUGAUAUAGAGAAAAUUGUAGAAGAACUGGGGAAAGAAUACAAGGGCAACGCCUACCAUCUGAUG | 1.1 ratio |
| GCUCUUGGGAAUGUAAUCAGCGCCUUGGGGGACAAGAGCAAGAGAGCCACCCAUGUCCCUUACAGAGAUUCCAAGCUGACAAGACUCUUGCAGGAUUCCCUUGGGGGUAAUAGCCAAACC | 0.136 ratio |
| GAACCUGUUGCUGAUGAUGAAGAUGAGGAAGACAAUGAUGAUGUUGAACCCAUUUCUGAAUUUCGAUUUGUGCCCAGUGAUAAGUCAGCAUUGGAGGCGAUGUUCACAGCAAUGUGUGAG | 0.326 ratio |
| UAAGUCCUGUGCCAGCACUUCGCUCAUAAAGUUUUAAAUUCUGGACCAAUAGUGUUUAUCUUUAGAAUAUUGUAUCCAAUACUUUAUCUAGUAUGUAACUCACUCUUACUGAUAAUAAAA | 5.44 ratio |

Series 2
Target: Interferon regulatory factor 5, full length, phosphomimetic (IRF5, Homo sapiens, UniProt Q13568-2, residues 1-514, K96S/S451D/S453D/S456D/S462D)
Method: protein-binding microarray
Form: double-stranded DNA, one strand shown
Sample: in vitro
Concentration: 250 nM
Notes: 60-bp whole probe
Together with: salmon DNA 0.4 mg/ml
Relative to: random background probes
Direction: higher = stronger binding
Constant ends, left off below: GCCTAGCAC … GTCTTGATTCGCTTGACGCTGCTG
| Oligonucleotide | log fluorescence [z-score] |
| --- | --- |
| TTAGGTATCGGTTATCGGTTAGTGCTA | 8.53 |
| TCATATCACTATTCTAGGACTGTGCTA | 2.64 |
| TCACCTCTAGGTCTTCTACTGTGCTAG | -0.196 |
| TTAGGCCTCCTTCTCCTTTAGTGCTAG | -0.352 |
| GACGGTTTCGACGTTCGGGACGTGCTA | 4.89 |
| TCAAGTCTCATATTTATACTGTGCTAG | 0.762 |
| TTATGACTGGGACTGGGTTAGTGCTAG | -0.045 |
| TTAGTTTTCGACACTGGGTTAGTGCTA | 3.4 |
| GACGATTTCGGCTTTCGAGACGTGCTA | 4.87 |
| TTAGGAATGGACTTTCGGTTAGTGCTA | 9.56 |
| TTAGAACTGGGTCTCGATTAGTGCTAG | 0.094 |
| TTAGGTCACCTTATCCTTTAGTGCTAG | -0.118 |
| TGGCAGCATTCTTGGAAATCGTGCTAG | -0.417 |
| GACGGTCTCGTTCTCCTGACGTGCTAG | -0.162 |
| GACGGTCTCTGTTTCGGGACGTGCTAG | 2.94 |
| GACGATTTCAGACTGGAGATGTGCTAG | 0.32 |
| TCATTTTTTAATTGAGAACTGTGCTAG | 0.398 |
| GACGGTATCCTTATCCTAACGTGCTAG | 0.1 |
| TCACCTATAGGTTTCTAACTGTGCTAG | 0.555 |

Series 3
Target: RNA binding protein fox-1 homolog 2, RRM domain, GST-SBP tag (RBFOX2, Homo sapiens, UniProt O43251-10, residues 100-194)
Method: RNA Bind-n-Seq
Form: RNA
Sample: in vitro
Concentration: 365 nM
Notes: natural RNA segment, single round, ends assumed
Relative to: no-protein control
Direction: higher = stronger binding
Constant ends, left off below: GGGAGUUCUACAGUCCGACGAUC … UGGAAUUCUCGGGUGCCAA
Residues (chain): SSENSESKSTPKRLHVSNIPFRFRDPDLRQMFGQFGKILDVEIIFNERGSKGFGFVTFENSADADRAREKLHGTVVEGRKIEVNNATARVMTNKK
| Oligonucleotide | RBNS enrichment (R) |
| --- | --- |
| AUGACAAACUGAGGUCAGGGGUAGCUGCAGUGUGGGGCUGUCAGAAGAUGAAUACAGCAUCCCGCAGAGGUAGGAUAUGAGGAGGCUAUACUGGAGCGUAGGGAUGAGAU | 2.14 |
| UGCAAUAAUUUAGUAGCAUUAGCUUUAGUUACAAAUAUAACUGGAUCUUUCUGCUGACAACUUAGGUUGUAUGAGUUAUGCUUAAAAGCUUUAAAUCUGAUGUUUCCUGU | 0.195 |
| AACUACAUCCUGGGCCUGGAAUAUGAUGAAGAGCAUCAGUGGAAAACCCACCCCACACGCCAUGGACCUCAGGGCACUCUCCUCCCUGCCCACAAAGACCUCCUGGGUGG | 0.948 |
| AGAGGGUGAACGGAGGCAGCGGGAACAGGUCCUGCCUGCCUGGUGAAGGGGUCCGGUGCAUUUUAUAUUCUCUUUACAAAGGGCCUCUCUUCCACAGUUAACCAGGUCUC | 1.55 |
| UUUCAUCUCAACUAUGUUAUACCUGGACAUUUUAGAUGUUUAUCAAAGGUCUUUUAUGGGGAAGAAAGUAAAUGUAUGAAAUAAUAAAUGUGUGACAUUUAUAGGGAAUG | 0.509 |
| CCUAUUUAUUUCAGUGAGAAUGCGUGUCCGGUUGCCUCUGUCCCUGUUUGUGCGUCCUUCCUCCCAGCCGGUUCCCACCCUCCUAAGGGUUAUGCCAGUGGAUCUCACGC | 1.28 |
| UUGAGUGGGUGCACAGGAAGCAGCUAGCGGAUAGGAAGGCACUCUGCUCUGUGAUGGCAAGUGAAGACUUGAGAACUUAGGGUGAUGACCACCGAACAGCACAGCUAGUG | 0.536 |
| UGAGGACUCAUAUAUUUAAGCCUUUUGUGUAAUAAGAAAGUAUAAAGUCACUUCCAGUGUUGGCUGUGUGACAGAAUCUUGUAUUUGGGCCAAGGUGUUUCCAUUUCUCA | 1.27 |

Series 4
Molecule: PhoQ, residues 284 288 289 292 302 303 ALSMDL
Method: Sort-seq
Item: YFP reporter
Sample: E. coli
Notes: PhoQ-PhoP variant library
Together with: 10 µM Mg2+
Relative to: high Mg2+ state
Direction: higher = stronger signaling
| target | fold induction |
| --- | --- |
| PhoP, residues 12 14 15 18 19 SHWTV (Escherichia coli, UniProt P23836) | 24.4 |
| PhoP, residues 12 14 15 18 19 QYCSL (Escherichia coli, UniProt P23836) | 10.2 |
| PhoP, residues 12 14 15 18 19 STHWV (Escherichia coli, UniProt P23836) | 26.4 |

Series 5
Target: Histone acetyltransferase KAT6A, both winged helices, GST fusion (KAT6A, Homo sapiens, UniProt Q92794, residues 1-181)
Method: protein binding microarray
Form: double-stranded DNA, one strand shown
Sample: in vitro
Concentration: not given
Notes: 8-mer, flanks averaged, mean of 2 arrays, mostly near background
Relative to: not given
Direction: higher = stronger binding
Target sequence (chain): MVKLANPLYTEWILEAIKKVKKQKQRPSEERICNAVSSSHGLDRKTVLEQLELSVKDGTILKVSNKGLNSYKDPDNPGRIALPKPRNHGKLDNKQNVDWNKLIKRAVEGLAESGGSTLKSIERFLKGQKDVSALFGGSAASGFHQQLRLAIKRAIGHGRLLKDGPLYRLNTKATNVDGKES
| Oligonucleotide | E-score |
| --- | --- |
| AGCCTTAT | -0.183 |
| AACCGCGT | 0.311 |
| CTAAGTAA | 0.0403 |
| ACCCTAGG | -0.209 |
| AATTACTC | -0.0727 |
| GGGAATGA | 0.0721 |
| AGGATCCA | -0.0634 |
| ACGTTTTA | -0.0708 |
| GCATCAGA | 0.00671 |
| ACACCGTC | 0.16 |
| AGATACTC | -0.0357 |
| AAATATGG | -0.113 |
| CAACAAGA | -0.163 |
| GAAATGAC | 0.0018 |
| AGACAGGG | -0.0754 |
| ACTACTCC | 0.136 |

Repeated from above (series 3):
| Oligonucleotide | RBNS enrichment (R) |
| --- | --- |
| UUGAGUGGGUGCACAGGAAGCAGCUAGCGGAUAGGAAGGCACUCUGCUCUGUGAUGGCAAGUGAAGACUUGAGAACUUAGGGUGAUGACCACCGAACAGCACAGCUAGUG | 0.536 |
| AACUACAUCCUGGGCCUGGAAUAUGAUGAAGAGCAUCAGUGGAAAACCCACCCCACACGCCAUGGACCUCAGGGCACUCUCCUCCCUGCCCACAAAGACCUCCUGGGUGG | 0.948 |
| UGCAAUAAUUUAGUAGCAUUAGCUUUAGUUACAAAUAUAACUGGAUCUUUCUGCUGACAACUUAGGUUGUAUGAGUUAUGCUUAAAAGCUUUAAAUCUGAUGUUUCCUGU | 0.195 |
